Values quoted from earlier work that unrelated publications cite.
Compare with care: the assays were run in different laboratories.
Chain of UniProt Q92772 (whole entry, looked up): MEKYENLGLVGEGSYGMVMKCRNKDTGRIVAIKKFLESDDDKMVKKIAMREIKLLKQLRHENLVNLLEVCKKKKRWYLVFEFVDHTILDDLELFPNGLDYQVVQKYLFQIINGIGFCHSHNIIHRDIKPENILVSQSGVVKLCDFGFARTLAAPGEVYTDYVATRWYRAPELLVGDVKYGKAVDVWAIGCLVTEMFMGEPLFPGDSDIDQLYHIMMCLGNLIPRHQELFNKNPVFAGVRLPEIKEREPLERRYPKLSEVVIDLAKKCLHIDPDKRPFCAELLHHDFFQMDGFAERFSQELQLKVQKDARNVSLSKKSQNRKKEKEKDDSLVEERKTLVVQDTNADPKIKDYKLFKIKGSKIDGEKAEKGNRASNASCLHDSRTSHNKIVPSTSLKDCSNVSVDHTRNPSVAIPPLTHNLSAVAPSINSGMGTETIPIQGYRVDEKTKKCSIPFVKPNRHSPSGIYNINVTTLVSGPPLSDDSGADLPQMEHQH

Compound | tested on | assay | test system | setting | how to read | endpoint | value
CO[C@]1(C(=O)N[C@@H](C)c2ccc(-n3cc(F)cn3)nc2)CC[C@H](c2nc(C)cc(Nc3cc(C)[nH]n3)n2)CC1 |  |  | healthy human | dose not given, added: itraconazole | relative to: compound alone | AUC(0-inf) increase | 251%
Cc1nsc(-c2nnc3n2CCN(C(=O)c2ccc(F)cc2)[C@@H]3C)n1 |  |  | human | oral, 20 mg, day 1, fed |  | AUC(0-inf) | 1020 ng·h/mL
C[C@H]1CO[C@@H]2Cn3cc(C(=O)NCc4ccc(F)cc4F)c(=O)c(O)c3C(=O)N12 |  |  | human | oral, two 5 mg tablets, first study | relative to: fed over fasted | AUC(0-inf) ratio | 1.15
N#CCNC(=O)c1ccc(-c2ccnc(Nc3ccc(N4CCOCC4)cc3)n2)cc1 |  |  | human | dose not given, added: single-dose rifampicin |  | AUC(0-inf) increase | 57%
C[C@@H](Oc1ccc(S(C)(=O)=O)cc1C(=O)N1C[C@@H]2C[C@]2(c2cc(C(F)(F)F)on2)C1)C(F)(F)F |  |  | human | 25 mg single, added: itraconazole | relative to: with over without itraconazole | AUC(0-inf) ratio | 5.97
Cn1c(Cn2ccc(C(F)(F)F)c(Oc3cc(Cl)cc(C#N)c3)c2=O)n[nH]c1=O |  |  | human | dose not given, added: high-fat meal | relative to: fasted | AUC(0-inf) increase | 16%
CNCc1cc(-c2ccccc2F)n(S(=O)(=O)c2cccnc2)c1 |  |  | human | 30 mg, multiple dose |  | AUC(0-inf) | 327 ng·h/mL
Cc1cc(C)c(CNC(=O)c2cc(Cl)c3c(c2C)O[C@@](C)([C@H]2CC[C@H](N(C)C)CC2)O3)c(=O)[nH]1 |  |  | human | 50 mg |  | AUC(0-inf) | 1900 ng·h/mL
CNC(C)C1CCC(N)C(OC2C(N)CC(N)C(OC3OCC(C)(O)C(NC)C3O)C2O)O1 (centres unmarked) | Acinetobacter baumannii |  | clinical isolate RKI-No_19/09 |  |  | MIC | > 8 µg/mL
CN1CCC(COc2cnc(-c3cccc(Cn4nc(-c5cccc(C#N)c5)ccc4=O)c3)nc2)CC1 |  |  | human | dose not given, added: meal, high-fat, high-calorie | relative to: fasted state | AUC(0-inf) increase | 1.6 fold
CCOc1c([C@H](C)n2nc(C)c3c(N)ncnc32)cc(Cl)c(F)c1[C@@H]1CNC(=O)C1 |  |  | human | oral, 20 mg once daily, added: rifampin | relative to: compound alone | AUC(0-inf) decrease | 77%
Nc1cc(C(F)(F)F)c(-c2nc(N3CCOCC3)nc(N3CCOCC3)n2)cn1 | CDKL2 (Homo sapiens, UniProt Q92772) | enzyme activity |  | 10 µM | relative to: untreated | remaining activity | 100%
CC1(C)S[C@@H]2[C@H](NC(=O)[C@H](N)c3ccccc3)C(=O)N2[C@H]1C(=O)O | Acinetobacter baumannii |  | clinical isolate RKI-No_16/15 |  |  | MIC | > 16 µg/mL
CN1CCc2nc(C(=O)N[C@@H]3C[C@@H](C(=O)N(C)C)CC[C@@H]3NC(=O)C(=O)Nc3ccc(Cl)cn3)sc2C1 |  |  | human, mild renal impairment | dose not given, eGFR above 50 mL/min | relative to: normal renal function | AUC(0-inf) increase | 32%

For quick reference, copied from above:
Compound | tested on | assay | test system | setting | how to read | endpoint | value
Cn1c(Cn2ccc(C(F)(F)F)c(Oc3cc(Cl)cc(C#N)c3)c2=O)n[nH]c1=O |  |  | human | dose not given, added: high-fat meal | relative to: fasted | AUC(0-inf) increase | 16%
